# Measurements from different studies.
# Compare with care: the assays were run in different laboratories. “And” joins repeats or separate records; there may be more than shown. ± gives the spread as reported.
Structure (SMILES),assay,system,setting,how to read,quantity,value
CSCC[C@H](N)C(=O)N[C@@H](CO)C(=O)N[C@H](C(=O)N[C@@H](C)C(=O)NCC(=O)N[C@@H](CC(C)C)C(=O)N[C@@H](CCCCN)C(=O)N[C@@H](CCCCN)C(=O)N[C@@H](CCC(N)=O)C(=O)N[C@@H](Cc1c[nH]c2ccccc12)C(=O)N[C@@H](Cc1ccc(O)cc1)C(=O)N[C@@H](CCCCN)C(=O)N[C@@H](C)C(=O)N[C@@H](CO)C(=O)N[C@@H](CCC(N)=O)C(=O)N[C@@H](CC(C)C)C(=O)N[C@H](C(=O)N[C@@H](CO)C(=O)N[C@@H](CCC(=O)O)C(=O)N[C@@H](CCCCN)C(=O)N[C@H](C(=O)NCC(=O)NCC(=O)N[C@@H](C)C(N)=O)C(C)C)C(C)C)C(C)C,circular dichroism,~60% TFE,,,fractional helicity,71.7%
CCc1cnc(NC(=O)c2cc(S(=O)(=O)N3CCOCC3)ccc2N(C)C2CCCC2)s1,,"mouse, serum","10 mg/kg, 3 doses",,CPK,436 IU/L
C=CC(=O)Nc1cc(Nc2nccc(-c3c[nH]c4ccccc34)n2)c(OC)cc1N(C)CCN(C)C,storage stability,human dried blood spots,"24 h, on ice, medium QC level",,recovery,78.5%
CCC(CC)n1c(Cc2cccs2)nc2cc(C(=O)NC(CC(=O)O)CC(C)C)ccc21 (stereo not drawn),"echocardiography, measured: LVEF, FS",mouse,"dose not given, 2 wk",,cardiac function,no effect
CCCC[C@H](OC(C)=O)c1ccccc1C(=O)O,,"beagle dogs, both sexes, whole blood","intravenous, 1.5 mg/kg single dose",,clearance,21.7 ± 2.02 mL/min/kg
CCCCN1C(=O)c2cccc3c(NCCCCCCCCCCN4CCOCC4)ccc(c23)C1=O,,dichloromethane,,,molar extinction coefficient,12400 M⁻¹ cm⁻¹
CC1(N(CC(=O)O)CC(=O)O)CN(CC(=O)O)CCN(CC(=O)O)C1,"pH-potentiometry, measured: logK5H",0.15 M NaClO4,25 °C,,protonation constant (log),1
Cc1cc(-c2ccc(C(=O)[C@@H]3CCCC[C@H]3C(=O)Nc3cnn4c3C(=O)NCC4)cc2)[nH]n1,,"human, faeces","oral, 200 mg, 0-240 h",baseline: dose,cumulative recovery of radioactivity,79.2%
COc1ccc2c(c1)CCn1c[n+]3c(c1-2)-c1ccc(OC)cc1CC3,,"female NSG mice, blood","6 mg/kg, day 7, 5 days per week",,Lymphocytes,11.1 ± 6.98%
Cc1nn(-c2nc3c(F)cc(F)cc3s2)c(O)c1C(c1ccc(C(F)(F)F)cc1)c1c(C)nn(-c2nc3c(F)cc(F)cc3s2)c1O,,"ICR mouse, plasma","intravenous, 5 mg/kg",,AUC(all),87800 ng·h/mL and 46800 ng·h/mL and 36000 ng·h/mL
O=C(Nc1cnccc1-c1ccc([18F])cc1)c1ccnc(NC(=O)C2CC2)c1,ex vivo gamma counting,"GSK-3β transgenic mice, late-stage, urine","intravenous, 120 min, mean, no P-gp inhibitor",,SUV,31.7
CC(C)[C@H](NC(=O)[C@H](Cc1c[nH]c2ccccc12)NC(=O)[C@H](CCCNC(=N)N)NC(=O)[C@H](CCCNC(=N)N)NC(=O)[C@@H](NC(=O)[C@@H](NC(=O)[C@H](CCCNC(=N)N)NC(=O)[C@@H](NC(=O)[C@@H](NC(=O)[C@H](CCCNC(=N)N)NC(=O)[C@H](CCCNC(=N)N)NC(=O)[C@@H](NC(=O)[C@H](Cc1c[nH]c2ccccc12)NC(=O)[C@H](CCCNC(=N)N)NC(=O)[C@H](CCCNC(=N)N)NC(=O)[C@@H](NC(=O)[C@H](CCCNC(=N)N)NC(=O)[C@H](CCCNC(=N)N)NC(=O)[C@@H](NC(=O)[C@H](Cc1c[nH]c2ccccc12)NC(=O)[C@H](CCCNC(=N)N)NC(=O)[C@@H](N)CCCNC(=N)N)C(C)C)C(C)C)C(C)C)C(C)C)C(C)C)C(C)C)C(C)C)C(=O)N[C@@H](CCCNC(=N)N)C(=O)N[C@@H](CCCNC(=N)N)C(=O)O,,"CD1 mouse, plasma","intravenous, 15 mg/kg, 24 h, [14C]-labelled compound",,glucose,155 mg/dL
COc1cccc(OC)c1-c1cc(C(=O)NC2(C(=O)O)C3CC4CC(C3)CC2C4)nn1-c1ccc(C(=O)N(C)CCCN(C)C(=O)[C@H](CCCCNC(=O)[C@H](CC(C)C)NC(=O)C2OC2C(=O)O)NC(=O)CN2CCN(CC(=O)[O-])CCN(CC(=O)[O-])CCN(CC(=O)[O-])CC2)cc1C(C)C.[177Lu+3] (mixture of isomers),,"mouse, HT-29 xenograft, brain",24 h post injection,,tissue uptake,0.06 %ID/g
C=C(NC(=O)c1csc(-c2nc3c(cc2O)-c2nc(cs2)C(=O)NC(C(C)O)C(=O)NC(=C(C)OC)c2nc(cs2)C(=O)NC2c4nc(cs4)C(=O)NC(COC(=O)c4c5c6c(cccc6n4O)COC(=O)C(OC4CC(C)(O)C(N(C)C)C(C)O4)C2OC5)c2nc-3cs2)n1)C(N)=O (stereo not drawn),,"Sprague-Dawley rat, both sexes",intravenous infusion,baseline: hepatic blood flow,blood clearance,87.3%
O=C(CCc1cn([C@@H]2O[C@H](C[18F])[C@@H](O)[C@H](O)[C@H]2O)nn1)Nc1ccc(-c2nnc(-c3ccccn3)nn2)nc1,,"LS174T xenograft, BALB/c nude mouse, heart","intravenous, 1 h, with: CC49-TCO, Tz/TCO 1:1",,heart uptake,1.7 ± 0.4 %ID/g
N[C@@H](CNC(=O)N[C@@H](CS)C(=O)NCC(=O)O)C(=O)O,,C57BL/6 mouse,"intraperitoneal, dose not given",,brain-to-plasma AUC ratio,0.63 ± 0.4
CCCCN1C(=O)c2cccc3c(NCCCCN4CCOCC4)ccc(c23)C1=O,,DMSO,,,molar extinction coefficient,8600 M⁻¹ cm⁻¹
CCC(C(=O)Nc1ccc(C(N)=O)c(F)c1)n1cc(OC)c(-c2cc(Cl)ccc2-n2cc(C(F)(F)F)nn2)cc1=O (stereo not drawn),,healthy male humans,"50 mg, maximum intensity, with: antacid",,mild drug-related adverse events,0%
CC(=O)N([O-])CCCCCNC(=O)CCC(=O)N([O-])CCCCCNC(=O)CCC(=O)N([O-])CCCCCN.[89Zr+4],radio-TLC,aqueous buffer,"1 d, pH 5, 37 °C, 89Zr-labelled complex, with: DTPA 100-fold excess",,intact complex,99.9 ± 0.1%
C=C[C@]1(C)C[C@@H](OC(=O)CSc2ccc(NC(=O)c3ccco3)cc2)[C@]2(C)[C@H](C)CC[C@]3(CCC(=O)[C@H]32)[C@@H](C)[C@@H]1O,,"Mycoplasma gallisepticum-infected chickens, plasma","intramuscular, 80 mg/kg, 0.083 h",,plasma concentration,5210 ng/mL and 4870 ng/mL and 6540 ng/mL and 5060 ng/mL and 5950 ng/mL and 11900 ng/mL and 7290 ng/mL
Fc1ccc(/C=N/Nc2nnc(N/N=C/c3ccc(F)cc3)c3ccccc23)cc1,haemolysis,human,"10 mM, 45 min",,haemolysis,8.4%
CCCCN1C(=O)c2cccc3c(NCCCCCN4CCOCC4)ccc(c23)C1=O,,water,pH 6.0,,fluorescence lifetime,4.3 ns
O=C1CCC(N2Cc3cc(C(=O)O)c(F)cc3C2=O)C(=O)N1 (stereo not drawn),,"cynomolgus monkey, male","oral, 0.3 mg/kg parent drug, 3 h",,plasma concentration,8.4 ± 9.1 ng/mL
O=C(NS(=O)(=O)c1cccs1)c1cc2ccccc2n1Cc1ccc(Br)c2ccccc12,,"Sprague-Dawley rat, male, plasma","oral, 20 mg/kg",,MRT(0-inf),2.77 h
CCCCN1C(=O)c2cccc3c(NCCN4CCOCC4)ccc(c23)C1=O,,Methanol,,,molar extinction coefficient,7880 M⁻¹ cm⁻¹
[123I]c1ccc2nc(-c3ccc(-n4ccnn4)nc3)cn2c1,,"Wistar rat, pancreas","intravenous, 24 h",,tissue uptake,not detected
CN1CCC[C@]1(C)/C=C/S(=O)(=O)NC(=O)Nc1c2c(cc3c1CCC3)CCC2,"measured: Constipation, possibly related",human,"oral, 100 mg twice daily, 14 days, multiple ascending dose",,subjects with adverse event,0%
CC[C@H](C)[C@H](NC(=O)[C@H](Cc1ccc(O)cc1)NC(=O)[C@@H](NC(=O)[C@H](CCCNC(=N)N)NC(=O)[C@@H](N)CC(=O)O)C(C)C)C(=O)N[C@@H](Cc1c[nH]cn1)C(=O)N1CCC[C@H]1C(=O)O,LC-MS/MS,"Sprague-Dawley rat, plasma","sc, 10 mg/kg/day, day 27",baseline: day 0,Cmax increase,~10 fold
CCC1C=C(C)C(O)C(C)CC(OC)C2OC(O)(C(=O)C(=O)N3CCCCC3C(=O)OC(C(C)=CC3CCC(O)C(OC)C3)C(C)C(O)CC1=O)C(C)CC2OC (stereo not drawn),,"C57BL/6 mouse, blood","topical, dose not given, 6 h, daily dosing for 4 days",,blood concentration,not detected
C#CC(C)(C)C(=O)SCCOP1(=O)OCC2OC(n3cnc4c(N)ncnc43)CC2OP(=O)(OCCSC(=O)C(C)(C)C#C)OCC2OC(n3cnc4c(N)ncnc43)CC2O1 (stereo not drawn),,"non-tumor-bearing mice, blood","intravenous, 1 mg/kg, toxicity study",,RDW-SD,19.88 ± 0.17 fL
C/C(N)=N/C(=N\S(=O)(=O)c1ccc(C(F)(F)F)cc1)N1C[C@H](c2ccccc2)C(c2ccc(Cl)cc2)=N1,,"Beagle dog, plasma","oral, 24 mg/kg",,AUC(0-inf),28400 ng·h/mL
CN(O)C(=O)CCC(=O)NCCCN(CCCCN(CCCNC(=O)CCC(=O)N(C)O)C(=O)CCC(=O)N(C)O)C(=O)CCC(=O)N(C)O.[89Zr],radio-TLC,aqueous buffer,"3 d, pH 7.2, 37 °C, 89Zr-labelled complex, with: CoCl2 10-fold excess",,intact complex,97.8 ± 2%
CCCCCCCOc1ccc(CC[C@](N)(CO)COP(=O)(O)O)cc1C(F)(F)F,,"healthy men, urine","oral, 0.75 mg once daily, day 1, fed state",baseline: dose,urinary excretion (0-24 h),0%
CCCCN1C(=O)c2cccc3c(NCCCN4CCOCC4)ccc(c23)C1=O,,EtOAc,,,molar extinction coefficient,4600 M⁻¹ cm⁻¹
COCC1CN(C2CCN(c3cc(OC)c(Nc4ncc(Br)c(Nc5ccc6c(c5P(C)(C)=O)OCCO6)n4)cc3C)CC2)C1,,"EGFR-mutant NSCLC patients, plasma","oral, 30 mg multiple doses, median",,Tmax at steady state,2 h
CCCC[C@H](NC(=O)CNC(=O)CNC(=O)[C@H](CCCCNC(=O)[C@H](CC(=O)O)NC(=O)C(C)c1ccc(CC(C)C)cc1)NC(=O)CN1CCN(CC(=O)O)CCN(CC(=O)O)CCN(CC(=O)O)CC1)C(=O)N[C@H]1CC(=O)NCCCC[C@@H](C(N)=O)NC(=O)[C@H](Cc2c[nH]c3ccccc23)NC(=O)[C@H](CCCNC(=N)N)NC(=O)[C@@H](Cc2ccccc2)NC(=O)[C@H](Cc2c[nH]cn2)NC1=O (stereo partly drawn) [lutetium-177 labelled],,"C57 mice, tumour","intravenous, 0.037 MBq, 4 h",baseline: lung,tumour-to-tissue ratio,41.1
CCCCN1C(=O)c2cccc3c(NCCCCCCN4CCOCC4)ccc(c23)C1=O,,DMF,,,molar extinction coefficient,13500 M⁻¹ cm⁻¹
O=C([O-])CN1CCN(CC(=O)O)CCN(CC(=O)[O-])CCN(CC(=O)O)CC1.[64Cu+2],dynamic micro-PET imaging,"rat, chronic myocardial infarction, blood",intravenous,,blood elimination half-life,0.353 ± 0.035 h
CCN(CC)c1ccc2c(c1)O[B-]1(c3ccccc3C)OC(=O)C(c3ccccc3)=N[N+]1=C2 (stereo not drawn),,toluene,,,molar absorption coefficient,59000 M⁻¹ cm⁻¹

# For quick reference, copied from above:
Structure (SMILES),assay,system,setting,how to read,quantity,value
CCC(C(=O)Nc1ccc(C(N)=O)c(F)c1)n1cc(OC)c(-c2cc(Cl)ccc2-n2cc(C(F)(F)F)nn2)cc1=O (stereo not drawn),,healthy male humans,"50 mg, maximum intensity, with: antacid",,mild drug-related adverse events,0%
CC(=O)N([O-])CCCCCNC(=O)CCC(=O)N([O-])CCCCCNC(=O)CCC(=O)N([O-])CCCCCN.[89Zr+4],radio-TLC,aqueous buffer,"1 d, pH 5, 37 °C, 89Zr-labelled complex, with: DTPA 100-fold excess",,intact complex,99.9 ± 0.1%
